{"data": "Measurements of several laboratories", "cell line": "HCT-116", "note": "Values joined by “and” are separate records of one study, mostly repeats; a detail may differ. ± marks the error that the study gave."}
{"SMILES": "COc1cc(CNC(=O)C[C@H](C)CCC=C(C)C)ccc1OCc1cn(-c2ccccc2F)nn1", "assay": "SRB", "setting": "10 µM, 48 h", "quantity": "growth percent", "result": "60.1%"}
{"SMILES": "CC(=C(c1ccc(O)cc1)c1ccc(Cl)cc1)c1ccc(Cl)cc1", "assay": "cell growth or viability, SRB", "quantity": "GI50", "result": "0.62 µM"}
{"SMILES": "O=C(/C=C/c1ccc(O)cc1)OC(CO)C(=O)O (centres unmarked)", "assay": "Wnt/β-catenin signalling, RT-qPCR, item: B9L", "setting": "25 µM", "how to read": "baseline: HPRT", "quantity": "mRNA level", "result": "no effect"}
{"SMILES": "COc1cc(CNC(=O)C[C@H](C)CCC=C(C)C)ccc1OCc1cn(-c2cccc(C(F)(F)F)c2)nn1", "assay": "SRB", "setting": "10 µM, 48 h", "quantity": "growth percent", "result": "12.5%"}
{"SMILES": "O=C(Cn1c(=O)c(Cc2ccccc2)nc2ccccc21)NN1C(=O)c2ccccc2C1=O", "assay": "MTT", "how to read": "baseline: HCT-116 over normal colonocytes", "quantity": "selectivity index", "result": "7.05 and 7.04"}
{"SMILES": "CC1CCCN(CCCNC(=O)C2=Cc3sc4c(c3CS2)CCCC4)C1 (centres unmarked)", "setting": "20 µM, 48 h", "how to read": "baseline: vehicle", "quantity": "esterified cholesterol", "result": "4.7 fold"}
{"SMILES": "[Cl][Au]1[P](c2ccccc2)(c2ccccc2)C[P](c2ccccc2)(c2ccccc2)[Au]([Cl])[P](c2ccccc2)(c2ccccc2)C[P]1(c1ccccc1)c1ccccc1", "assay": "cell growth, trypan blue exclusion", "setting": "48 h, DMSO 1%", "quantity": "IC75", "result": "1.9 ± 0.2 µM"}
{"SMILES": "CO[C@H]1N(OC)c2ccccc2[C@@]12CN=C(Nc1cc(C(F)(F)F)cc(C(F)(F)F)c1)S2 (relative stereo)", "assay": "annexin V/PI flow cytometry", "setting": "40 µM, 24 h", "quantity": "early apoptotic cells", "result": "23.4 ± 3.25%"}
{"SMILES": "Cc1ccc2nc(C)n(/N=C/c3ccc(C(=O)O)cc3)c(=O)c2c1", "assay": "cell growth or viability, LDH", "setting": "200 µg/mL, 24 h", "quantity": "viability", "result": "36%"}
{"SMILES": "CCOC(=O)c1ccc(-n2cc(Cn3c(=O)c(Cc4ccccc4)nc4ccccc43)nn2)cc1", "assay": "MTT", "how to read": "baseline: HCT-116 over normal colonocytes", "quantity": "selectivity index", "result": 0.423}
{"SMILES": "Cc1ccc(C(C)C)cc1.[Cl][Au].[Cl][Ru][Cl].c1ccc(P(CP(c2ccccc2)c2ccccc2)c2ccccc2)cc1", "assay": "cell growth or viability, trypan blue", "setting": "48 h", "quantity": "IC90", "result": "21.5 µM"}
{"SMILES": "COC(=O)CCNC(=O)CNC(=O)CCn1nc(Cc2ccccc2)c2ccccc2c1=O", "setting": "concentration not given", "quantity": "S phase cells", "result": "38.3%"}
{"SMILES": "Cc1ccc(C(C)C)cc1.[Cl][Ru]([Cl])[P](CP(c1ccccc1)c1ccccc1)(c1ccccc1)c1ccccc1", "assay": "cell growth or viability, trypan blue", "setting": "48 h", "quantity": "IC90", "result": "2390 µM"}
{"SMILES": "Cc1ncc(COP(=O)([O-])O)c(/C=N\\NC(=O)Cn2c(=O)c(Cc3ccccc3)nc3ccccc32)c1O.[Na+]", "assay": "MTT", "how to read": "baseline: HCT-116 over normal colonocytes", "quantity": "selectivity index", "result": 1.06}
{"SMILES": "C[C@]1(CO)C2CC[C@@]3(CO3)[C@@H](/C=C/C3=CCOC3=O)[C@]2(C)CC[C@H]1O (some centres unmarked)", "assay": "cell growth or viability, MTT", "setting": "20 µM, 48 h", "quantity": "inhibition", "result": "0%"}
{"SMILES": "COc1cc2c(Oc3ccc(Nc4nn(C)cc4C(=O)NC4CCCCC4)cc3F)ccnc2cc1OCCCCCCC(=O)NO", "assay": "cell growth or viability, MTT", "setting": "0.7 µM", "quantity": "inhibition", "result": "> 90%"}
{"SMILES": "COc1ccc(NC(=O)N/N=C2\\CC3(CCN(C)CC3)Oc3ccccc32)cc1", "assay": "PI staining, flow cytometry", "setting": "concentration not given, %G2/M", "quantity": "cell cycle distribution", "result": "9.51%"}
{"SMILES": "NC1=N[N+](=Cc2c3ccccc3cc3ccccc23)[Ga-3]23([S]1)([S]C(N)=N[N+]2=Cc1c2ccccc2cc2ccccc12)[S]C(N)=N[N+]3=Cc1c2ccccc2cc2ccccc12", "setting": "72 h", "how to read": "baseline: IC50 CCD-18Co over HCT-116", "quantity": "selectivity ratio", "result": "4.22 and 4.2"}
{"SMILES": "N=C(N)NCCC[C@@H](N)C(=O)N[C@@H](CCCNC(=N)N)C(=O)N[C@@H](Cc1ccc2ccccc2c1)C(=O)N[C@@H](CCCNC(=N)N)C(=O)N[C@@H]1CSCc2ccccc2CSC[C@@H](C(=O)N[C@H](CCCNC(=N)N)C(=O)N[C@@H](CC2CCCCC2)C(=O)N[C@@H](CCCNC(=N)N)C(=O)N2Cc3ccccc3C2C(N)=O)NC(=O)[C@H](Cc2cccc3ccccc23)NC(=O)[C@H](Cc2ccc(O)cc2)NC1=O (some centres unmarked)", "quantity": "EC50", "result": "10.7 ± 0.7 µM"}
{"SMILES": "O=C(COc1ccccc1/C=N/Nc1nc(-c2ccc(Br)cc2)cs1)N1CCN(C(=O)COc2ccccc2/C=N/Nc2nc(-c3ccc(Br)cc3)cs2)CC1", "assay": "cell growth or viability, SRB", "setting": "100 µM, 48 h", "quantity": "inhibition", "result": "61.8%"}
{"SMILES": "[O-][n+]1nc(NCCNc2nc3ccccc3[n+]([O-])n2)nc2ccccc21", "assay": "CM-H2DCFDA flow cytometry", "setting": "concentration not given", "how to read": "baseline: control medium", "quantity": "ROS level", "result": "1.3 fold"}
{"SMILES": "COC(=O)N[C@H]1CC[C@@H](Nc2cc(NCc3ccccc3F)n3ncc(C(C)C)c3n2)CC1", "setting": "1 µM, 24 h", "quantity": "G2/M phase cells", "result": "34%"}
{"SMILES": "Cc1ccc(CNC(=O)[C@H](CCc2ccccc2)NC(=O)[C@H](CC(=O)NCC(C)(C)C)NC(=O)CCc2cccc(F)c2)cc1", "assay": "bulk protein turnover", "setting": "3 µM", "quantity": "inhibition", "result": "~20%"}
{"SMILES": "C=CCSc1nc(N)c2c(F)c(C#N)c(F)c(Cl)c2n1", "assay": "DAPI staining imaging", "setting": "1.02 µM, 24 h", "quantity": "cells in G2/M phase", "result": "31.1%"}
{"SMILES": "COc1cc(CNC(=O)C[C@H](C)CCC=C(C)C)ccc1OCc1cn(-c2cccc(Cl)c2)nn1", "assay": "SRB", "setting": "10 µM, 48 h", "quantity": "growth percent", "result": "72.2%"}
{"SMILES": "CC/C=C\\C/C=C\\C/C=C\\C/C=C\\C/C=C\\C/C=C\\CCC(=O)Nc1ccn(C2OC(CO)C(O)C2(F)F)c(=O)n1 (centres unmarked)", "assay": "NCI60 screen", "quantity": "TGI", "result": "15.3 µM"}
{"SMILES": "COCCSc1nc(N)c2c(F)c(C#N)c(F)c(Cl)c2n1", "assay": "DAPI staining imaging", "setting": "1.02 µM, 24 h", "quantity": "cells in S phase", "result": "7.55%"}
{"SMILES": "CCOP(=O)(OCC)OCCCCOC(=O)C(C)c1ccc(CC(C)C)cc1 (centres unmarked)", "assay": "western blot", "setting": "concentration not given", "quantity": "nuclear p65 level", "result": "inhibited"}
{"SMILES": "O=C(CCc1nc2cc(Cl)ccc2[nH]c1=O)Nc1ccc(O)cc1", "assay": "MTT", "how to read": "baseline: WI-38 IC50 over HCT-116 IC50", "quantity": "selectivity index", "result": 20}
{"SMILES": "O=C(Cn1c(=O)c(Cc2ccccc2)nc2ccccc21)OCCNCCO", "assay": "qRT-PCR, item: VEGF", "setting": "concentration not given, 72 h", "how to read": "baseline: untreated", "quantity": "mRNA level", "result": "0.497 ± 0.015 fold"}
{"SMILES": "CSc1nc(Nc2ccc(/C(C)=N/NC(=O)c3ccc([N+](=O)[O-])cc3[N+](=O)[O-])cc2)c(C#N)c(-c2ccccc2)n1", "assay": "annexin V-FITC/PI flow cytometry", "setting": "1.14 µM, 24 h", "quantity": "late apoptotic cells", "result": "15.7%"}
{"SMILES": "NS(=O)(=O)c1ccc(-n2cc(Cn3c(=O)c(Cc4ccccc4)nc4ccccc43)nn2)cc1", "assay": "qRT-PCR, item: p21", "setting": "concentration not given, 72 h", "how to read": "baseline: untreated", "quantity": "mRNA level", "result": "2.7 ± 0.188 fold"}
{"SMILES": "COc1ccc(C2=Nn3c(NN=C4C(=O)N(C)c5ccc(Br)cc54)nnc3SC2)cc1", "assay": "cell growth or viability, SRB", "setting": "10 µM", "quantity": "inhibition", "result": "18%"}
{"SMILES": "CC(C)C1=C(O)C(=O)C2=C(C1=O)[C@H](OC=O)[C@@H](O)[C@H]1C(C)(C)CCC[C@]21C", "assay": "cell growth or viability, SRB", "setting": "48 h", "quantity": "GI50", "result": "7.9 µM"}
{"SMILES": "COc1cc(CNC(=O)C[C@H](C)CCC=C(C)C)ccc1OCc1cn(-c2ccc([N+](=O)[O-])cc2)nn1", "assay": "SRB", "setting": "10 µM, 48 h", "quantity": "growth percent", "result": "32.1%"}
{"SMILES": "N#Cc1c(F)c(F)c2nc(SCc3ccc4ccccc4c3)nc(N)c2c1F", "assay": "DAPI staining imaging", "setting": "2.56 µM, 24 h", "quantity": "cells in S phase", "result": "11.1%"}
{"SMILES": "COc1cc(CNC(=O)C[C@H](C)CCC=C(C)C)ccc1OCc1cn(-c2ccc(Cl)c(Cl)c2)nn1", "assay": "SRB", "setting": "10 µM, 48 h", "quantity": "growth percent", "result": "29.8%"}
{"SMILES": "CC(=O)OCC1=CCC2[C@]3(C)COC(c4ccccc4)O[C@@H]3CC[C@@]2(C)[C@@H]1/C=C/C1=CCOC1=O (some centres unmarked)", "assay": "cell growth or viability, MTT", "setting": "20 µM, 48 h", "quantity": "inhibition", "result": "39.9%"}
{"note": "Excerpt of the above:"}
{"SMILES": "O=C(CCc1nc2cc(Cl)ccc2[nH]c1=O)Nc1ccc(O)cc1", "assay": "MTT", "how to read": "baseline: WI-38 IC50 over HCT-116 IC50", "quantity": "selectivity index", "result": 20}
{"SMILES": "O=C(Cn1c(=O)c(Cc2ccccc2)nc2ccccc21)NN1C(=O)c2ccccc2C1=O", "assay": "MTT", "how to read": "baseline: HCT-116 over normal colonocytes", "quantity": "selectivity index", "result": "7.05 and 7.04"}
{"SMILES": "O=C(COc1ccccc1/C=N/Nc1nc(-c2ccc(Br)cc2)cs1)N1CCN(C(=O)COc2ccccc2/C=N/Nc2nc(-c3ccc(Br)cc3)cs2)CC1", "assay": "cell growth or viability, SRB", "setting": "100 µM, 48 h", "quantity": "inhibition", "result": "61.8%"}
{"SMILES": "Cc1ccc(CNC(=O)[C@H](CCc2ccccc2)NC(=O)[C@H](CC(=O)NCC(C)(C)C)NC(=O)CCc2cccc(F)c2)cc1", "assay": "bulk protein turnover", "setting": "3 µM", "quantity": "inhibition", "result": "~20%"}
